Experimental data collected from several papers.
“And” joins repeats or separate records; there may be more than shown. ± marks the error that the study gave.

`CCCOc1ccc(-c2ccc(C#N)cc2)cc1`: “number of downregulated genes” 673 (BeWo; RNA sequencing; 500 µM, high dose).
For `Cc1nn(-c2nc3c(F)cc(F)cc3s2)c(O)c1C(c1ccc(C(F)(F)F)cc1)c1c(C)nn(-c2nc3c(F)cc(F)cc3s2)c1O`, “IFNB1 mRNA level” read 0.0873 and 0.162 and 0.154 (RAW-ISG; RT-qPCR; 10 µM, 312 h, unit not given, with: HT-DNA; reference: DMSO).
`OCc1ccc(-c2ccc(-c3ccc(CO)s3)o2)s1` has an IC50 of 120 nM (RBE; cell viability, CellTiter-Glo).
`O=c1[nH]nc(OCCCc2ccc(Cl)cc2)c(NCc2cccnc2)c1Br` — result for “normalized enrichment score”: 1.15 (HEK-293T; RNA-seq GSEA, refers to: HALLMARK_IL2_STAT5_SIGNALING; concentration not given; direction not given).
The EC50 of `CCn1cc(-c2cc(Cn3ccnc3)cc3c2CCN([C@H](c2cc(OC)ccn2)C2CC2)C3=O)c(C(F)(F)F)n1` is reported as 31200 nM (BT-474; cell growth, inhibitor; 120 h).
`CC1c2ccccc2CCN1c1ccc(CO)c(Cl)c1` (centres unmarked) has an IC50 of 190 nM (RBE; cell viability, CellTiter-Glo).
For `Cc1cnc(NC2CCOCC2)nc1-n1cnc(C(=O)NC(CN)c2cc(F)cc(Cl)c2)c1` (centres unmarked), “G1 phase cells” read 48.2% (Rec1; flow cytometry; 1 µM, 48 h).
The cell confluence of `NC(=O)NO` is reported as 23 ± 4.3% (HCT-116; cell growth, live-cell imaging; 250 µM, control at 90% confluence).
For `CCN(Cc1ccccc1OC)c1ccc(CO)c(Cl)c1`, the IC50 was 430 nM (RBE; cell viability, CellTiter-Glo).
For `CC/C(=N\NC(=O)NCc1cccc(O)c1)c1ccc(O)c(C)c1O`, the log ratio was -2.8 (SK-OV-3; gene expression, microarray, refers to: F11R; 10 µM, 24 h; reference: DMSO).
The EC50 of `C[C@]12CCCN1CC1=NNC(=O)c3cc(F)cc4[nH]c2c1c34` is reported as greater than 3000 nM (SW1573 colorectal cancer cells; cell viability; concentration not given, with: with temozolomide).
With `OCc1ccc(-c2nn(-c3ccccc3)c3ccccc23)o1` the IC50 was 4250 nM (RBE; cell viability, CellTiter-Glo).
For `Cc1ccc2[nH]c(CSc3nnc(NC(=O)c4ccccc4C)s3)cc(=O)c2c1`, protein level read “decreased” (BV-2; refers to: caspase-8; 30 nM, with: high glucose; reference: high glucose).
Under “log2 fold change”, `Cn1cc(-c2ccc(-c3cncc(Cl)c3N3CCC4(CCNC4=O)CC3)cc2)cn1` is recorded as -2.46 (COLO 205; gene expression, microarray, refers to: ARHGEF39 (C9orf100) mRNA; concentration not given, 2 h; reference: untreated cells).
`O=[N+]([O-])c1cc(I)c(O)c(C=NNc2ccccc2)c1`: “late apoptotic or dead cells” 36.4% (HCT-116; annexin V; IC50).
`CNC(=O)c1c(F)cccc1Nc1nc(Nc2cc3c(cc2OC)CCN3C(=O)CN(C)C)nc2[nH]ccc12` has a beat amplitude of 104% (hiPSC-derived cardiomyocytes (iCell); impedance (xCELLigence Cardio); concentration not given, 2 h; reference: control).
For `COCCOCCOCCOc1ccc(C#Cc2cc(CN3CCN(Cc4cc(C#Cc5ccc(OCCOCCOCCOC)cc5)cc(C(=O)O)n4)CCN(Cc4cc(SC[C@H](N)C(=O)NC[C@H]5CC[C@H](C(=O)N[C@@H](Cc6ccc7ccccc7c6)C(=O)NCCCC[C@H](NC(=O)N[C@@H](CCC(=O)O)C(=O)O)C(=O)O)CC5)cc(C(=O)O)n4)CC3)nc(C(=O)O)c2)cc1` [yttrium-86 labelled], the cell-bound radioactivity was 9.9 ± 0.88% (PC-3 PiP (PSMA-positive); concentration not given).
With `C=Cc1c2[n-]c(c1C)/C=c1\[n-]/c(c(C)c1C=C)=C\c1[n-]c(c(CCC(=O)O)c1C)/C=c1\[n-]c(c(C)c1CCC(=O)O)=C2.[Sn+4]` the fold change was 1.64 (SH-SY5Y; RNA-seq, refers to: TMC6 mRNA; 5 µM, 5 h; reference: untreated cells).
The EC50 of `CCn1cc(-c2cc(Cn3ccoc3=N)cc3c2CCN([C@@H](C)c2cc(OC)ccn2)C3=O)c(C(F)(F)F)n1` is reported as 1300 nM (SNU-16; cell growth, inhibitor; 120 h).
The toxicity of `COc1ccc(-n2nc(C(C)=O)s/c2=N\N=C(/C)c2ccc(NC(=O)c3ccccc3)cc2)cc1` is reported as 97.3% (MCF7; 1.25 µM).
For `Clc1nc(NCc2ccco2)c2[nH]cnc2n1`, the ΔPSI was 0.244 (FD iPSC-derived cardiomyocytes; alternative splicing, RNA-seq, refers to: EEF1D exon chr8:143581285-143581706; unit not given; reference: DMSO minus compound).
`COc1cccc(Cn2nc(-c3ccc(CO)o3)c3ccccc32)c1` gave an IC50 of 460 nM (RBE; cell viability, CellTiter-Glo).
`COC(=O)[C@]12CCC(C)(C)C[C@H]1[C@H]1C(=O)C=C3[C@@]4(C)C=C(C#N)C(=O)C(C)(C)[C@@H]4CC[C@@]3(C)[C@]1(C)CC2` — result for “point of departure”: 3.31 µM (HepG2; high content imaging, refers to: nuclear size; 24 h, representative mode).
With `COc1cc(/C=C/C(=O)N2CCC=CC2=O)cc(OC)c1OC` the mRNA level was 74.2 ± 12.6% (MDA-MB-468 cells; quantitative RT-PCR, refers to: cyclin D1; 30 µM, 6 h; reference: time zero).
With `COc1cnc2cccc(N3CCc4c(cc(Cn5ccnc5C)cc4-c4cn(C)nc4C(F)(F)F)C3=O)c2c1` the EC50 was 2180 nM (IM95; cell growth, inhibitor; 120 h).
For `NC(=O)NOCCCCCCCCCCCCCCCCCCCC[P+](c1ccccc1)(c1ccccc1)c1ccccc1.O=C([O-])C(F)(F)F`, the cell confluence was 14.4 ± 1.21% (HCT-116; cell growth, live-cell imaging; 0.3 µM, control at 90% confluence).
`Nc1cccc2c1C(=O)N(C1CCC(=O)NC1=O)C2=O` (centres unmarked) — result for “surface marker level”: 260% (RPMI-8226; flow cytometry, refers to: CD21; concentration not given; reference: comparator compound alone).
Under “pathway activation z-score”, `Cn1cc(Nc2nccc(-c3ccc4c(c3)CN(C3COC3)CC[C@H]4NC(=O)c3cn(C(C)(C)C)nn3)n2)cn1` is recorded as 3.78 (mouse splenic B cells; refers to: Neuroinflammation signalling pathway; 30 mg/kg, IgD-activated in vivo; reference: vehicle, direction not given).
With `CC(=O)O[C@@]12CO[C@@H]1C[C@H](O)[C@@]1(C)C(=O)[C@H](O)C3=C(C)[C@@H](OC(=O)[C@H](O)[C@@H](NC(=O)OC(C)(C)C)c4ccccc4)C[C@@](O)([C@@H](OC(=O)c4ccccc4)[C@H]21)C3(C)C` the CD44-positive cells was 9 ± 0.4% (4T1; flow cytometry; concentration not given, 48 h).
For `NC(=O)NOCCCCCCCCCCCCCC[P+](c1ccccc1)(c1ccccc1)c1ccccc1.O=C([O-])C(F)(F)F`, the cell confluence was 88.5% (HCT-116; cell growth, live-cell imaging; 0.03 µM, control at 90% confluence).
Under “log2 fold change”, `C=CC1=C(C)c2cc3[n-]c(cc4nc(cc5[n-]c(cc1n2)c(C)c5C=C)C(C)=C4CCC(=O)O)c(CCC(=O)O)c3C.[Zn+2]` is recorded as 1.9 (SH-SY5Y; RNA-seq, refers to: ZYX; 5 µM, 5 h; reference: untreated).
With `Cc1cccc(-c2[nH]c(CNc3ccccc3F)nc2-c2ccc3ncnn3c2)n1` the IFN-gamma production was 1.11% and 1.05% and 1.32% and 1.1% and 1% and 1.19% (CD8+ T cells from myeloma patient; ELISA; human; 0.5 µM, 192 h).
`c1ccc2[nH]ccc2c1` — result for “mRNA level, LS mean”: 2.98 counts per million (HCT-8; RNA-seq, refers to: ANKRD37; concentration not given).
For `COc1nc(NCc2cn(-c3ccc(C(=O)Nc4ccc(C(F)(F)F)cc4)cc3)nn2)nc(OC)n1`, “cell cycle phase %G0-G1” read 53.6% (HCT-116; flow cytometry; IC50, 24 h).
`CC(C)n1nc(-c2cc3cc(O)ccc3[nH]2)c2c(N)ncnc21` has a beat amplitude of 109% (hiPSC-derived cardiomyocytes (iCell); impedance (xCELLigence Cardio); concentration not given, 2 h; reference: control).
With `O=C1N(Cc2cccc3ccccc23)c2ccccc2C12NN=C(c1ccccc1)S2` (centres unmarked) the viability loss was 80 to 90% (H2373 and H2461 mesothelioma; MTT; 10 µM, 24 h).
The GI50 of `O=C(/C=C/C=C/C=C/C1CCCCC1)NC1=C[C@@](O)(/C=C/C=C/C=C/C(=O)NC2=C(O)CCC2=O)[C@@H]2O[C@@H]2C1=O` is reported as 21.7 µM (ASPC1; cell growth, CellTiter-Glo; 78 h).
For `Cl.Cl.NCCNS(=O)(=O)c1ccc(Cl)c2ccncc12`, “relative cell number” read 109% (SK-OV-3; ATP; 0.1 µM, 4 days, 3D U-bottom low-attachment; reference: untreated).
`CCCCc1nc(Cl)c(CO)n1Cc1ccc(-c2ccccc2-c2nn[nH]n2)cc1` — result for “log2 fold change”: 2.01 (human PBMC; RNA-seq, refers to: KREMEN1 mRNA; 10 µg/mL, 24 h; reference: untreated control).
`Cc1sc2c(c1C)C(c1ccc(Cl)cc1)=N[C@@H](CC(=O)NCCCCCCCCNC(=O)COc1cccc3c1C(=O)N(C1CCC(=O)NC1=O)C3=O)c1nnc(C)n1-2` (some centres unmarked) has a cell motility of 37.6% and 37.8% and 29.3% (4T1; wound healing; concentration not given, no laser irradiation).
With `CC(C)NCC(O)c1ccc(O)c(O)c1` (centres unmarked) the sarcomere length was 1.8 µm (mouse ventricular cardiomyocytes; dose not given, 0.023 s).

Repeated from above:
`Cc1sc2c(c1C)C(c1ccc(Cl)cc1)=N[C@@H](CC(=O)NCCCCCCCCNC(=O)COc1cccc3c1C(=O)N(C1CCC(=O)NC1=O)C3=O)c1nnc(C)n1-2` (some centres unmarked) has a cell motility of 37.6% and 37.8% and 29.3% (4T1; wound healing; concentration not given, no laser irradiation).
With `C=Cc1c2[n-]c(c1C)/C=c1\[n-]/c(c(C)c1C=C)=C\c1[n-]c(c(CCC(=O)O)c1C)/C=c1\[n-]c(c(C)c1CCC(=O)O)=C2.[Sn+4]` the fold change was 1.64 (SH-SY5Y; RNA-seq, refers to: TMC6 mRNA; 5 µM, 5 h; reference: untreated cells).
With `CC(C)NCC(O)c1ccc(O)c(O)c1` (centres unmarked) the sarcomere length was 1.8 µm (mouse ventricular cardiomyocytes; dose not given, 0.023 s).
The EC50 of `CCn1cc(-c2cc(Cn3ccnc3)cc3c2CCN([C@H](c2cc(OC)ccn2)C2CC2)C3=O)c(C(F)(F)F)n1` is reported as 31200 nM (BT-474; cell growth, inhibitor; 120 h).
For `Cc1nn(-c2nc3c(F)cc(F)cc3s2)c(O)c1C(c1ccc(C(F)(F)F)cc1)c1c(C)nn(-c2nc3c(F)cc(F)cc3s2)c1O`, “IFNB1 mRNA level” read 0.0873 and 0.162 and 0.154 (RAW-ISG; RT-qPCR; 10 µM, 312 h, unit not given, with: HT-DNA; reference: DMSO).
The EC50 of `C[C@]12CCCN1CC1=NNC(=O)c3cc(F)cc4[nH]c2c1c34` is reported as greater than 3000 nM (SW1573 colorectal cancer cells; cell viability; concentration not given, with: with temozolomide).
